Published values collected from several papers.
Compare with care: the assays were run in different laboratories.
Target: Metallo-beta-lactamase type 2 (blaNDM-1, Klebsiella pneumoniae, UniProt C7C422)
UniProt C7C422, sequence (whole entry, looked up): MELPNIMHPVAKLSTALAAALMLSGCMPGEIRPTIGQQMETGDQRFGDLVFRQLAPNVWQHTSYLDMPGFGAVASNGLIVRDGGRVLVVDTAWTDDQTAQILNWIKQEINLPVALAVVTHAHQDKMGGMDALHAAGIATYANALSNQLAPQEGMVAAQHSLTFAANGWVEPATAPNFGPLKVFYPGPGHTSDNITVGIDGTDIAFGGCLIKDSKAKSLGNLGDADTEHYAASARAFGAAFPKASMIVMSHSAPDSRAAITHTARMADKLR
Read-out: enzyme activity
Mode: inhibitor

Compound	method	time	setting	together with	IC50
Cn1nnc(-c2ccccc2NC(=O)CCS)n1	fluorescence	10 min preincubation		FC5 substrate	20 µM
N[C@@H](CN[C@@H](CN[C@@H](CC(=O)O)C(=O)O)C(=O)O)C(=O)O					12000 µM
O=C(O)c1ncsc1-c1ccccc1	fluorescence		with preincubation		532 µM
C[C@H](CS)C(=O)Nc1ccccc1-c1nn[nH]n1	fluorescence		with preincubation		10.8 µM
O=C(O)CNC(CO)(CO)CO	fluorescence				> 200 µM
O=C(O)CCc1c(C(=O)O)[nH]c2ccccc12	fluorescence		with preincubation		0.67 µM
CN[C@H](CC(C)C)C(=O)N[C@H]1C(=O)N[C@@H](CC(N)=O)C(=O)N[C@H]2C(=O)N[C@H]3C(=O)N[C@H](C(=O)N[C@H](C(=O)O)c4cc(O)cc(O)c4-c4cc3ccc4O)[C@H](O)c3ccc(c(Cl)c3)Oc3cc2cc(c3O[C@@H]2O[C@H](CO)[C@@H](O)[C@H](O)[C@H]2O[C@H]2C[C@](C)(NCc3ccc(C(=O)OCCCCCCN(Cc4ccccn4)Cc4ccccn4)cc3)[C@H](O)[C@H](C)O2)Oc2ccc(cc2Cl)[C@H]1O	fluorescence				0.2 µM
O=C(O)CC(O)(CC(=O)O)C(=O)O	fluorescence				132 µM
O=C(O)c1nccn1Cc1ccccc1	fluorescence		with preincubation		66.7 µM
C[C@H](CS)C(=O)Nc1cccc(-c2nn[nH]n2)c1	fluorescence		with preincubation		0.396 µM
O=C(O)CNCC(=O)O	fluorescence				> 200 µM
Cn1nnc(-c2cccc(NC(=O)CCS)c2)n1	fluorescence		with preincubation		4.19 µM
CC(C)C1=CCC(C(=O)O)C(C(=O)O)C1 (stereo not shown)	fluorescence		with preincubation		491 µM

A few entries again:
Compound	method	time	setting	together with	IC50
C[C@H](CS)C(=O)Nc1ccccc1-c1nn[nH]n1	fluorescence		with preincubation		10.8 µM
O=C(O)CNC(CO)(CO)CO	fluorescence				> 200 µM
